Measurements from different studies.
Each line is one published result; not all experiments were run side by side. ± marks the error that the study gave.

CC(C)C(C(=O)c1ccc(OCCN(C)C)cc1)c1ccccc1 (stereo not shown)  EC50 (type 2 Gaucher disease patient cells, L444P/L444P; lysosomal calcium release; added: GPN): 4 to 4.4 µM
CC1=C(C/C=C(\C)CCC[C@H](C)CCC[C@H](C)CCCC(C)C)C(=O)c2ccccc2C1=O  EC50 (UBIAD1-knockout FIXgla-PC HEK293 cells; vitamin K-dependent carboxylation, ELISA, item: FIXgla-PC): 0.0076 µM
CC[C@H](C)[C@H](NC(=O)[C@H](CCC(=O)O)NC(=O)[C@H](CC(=O)O)NC(=O)CNC(=O)[C@H](CC(C)C)NC(=O)[C@H](CCCNC(=N)N)NC(=O)[C@H](CCCNC(=N)N)NC(=O)[C@H](CC(C)C)NC(=O)CNC(=O)[C@H](CCC(N)=O)NC(=O)[C@@H](NC(=O)[C@H](CCSC)NC(=O)[C@H](Cc1c[nH]c2ccccc12)NC(=O)[C@@H](NC(=O)[C@H](CCC(=O)O)NC(=O)[C@@H]1CCCN1C(=O)[C@H](CCCNC(=N)N)NC(C)=O)[C@@H](C)CC)[C@@H](C)O)C(=O)N[C@@H](CC(N)=O)C(=O)N[C@@H](C)C(=O)N[C@@H](Cc1ccc(O)cc1)C(=O)N[C@@H](Cc1ccc(O)cc1)C(=O)N[C@@H](C)C(=O)N[C@@H](CCCNC(=N)N)C(N)=O  EC50 (Pfeiffer, permeabilized; mitochondrial depolarization, BH3 profiling, JC-1; 3 h): > 100 µM
CN(C)C/C=C/C(=O)Nc1cc2c(Nc3ccc(F)c(Cl)c3)ncnc2cc1O[C@H]1CCOC1  EC50 (A-431; protein phosphorylation, phosphoproteomics): ~0.01 µM
COc1ccc2cc(CCC(C)=O)ccc2c1  EC50 (Kasumi-1; cell proliferation, XTT): ~15 µM
COc1cc(F)c([C@@H]2CNC(=O)[C@H]2NC(=O)Nc2ccccc2)c(F)c1  EC50 (differentiated HL-60; chemotaxis, agonist): 0.006 µM
N=C(NCCCCCN)c1ccc(OCCCCCOc2ccc(C(=N)NCCCCCN)cc2)cc1  EC50 (WM-115, scrambled shRNA; cell growth, SYBR Green; high S100B): 37.1 ± 3.6 µM
CN(C)C1CCN(CC#Cc2nn(C3CCCC3)c3nc(NCc4ccccc4)ncc23)C1 (stereo not shown)  EC50 (T98; cell growth or viability, resazurin; 5 days): 2.41 µM
CC12OC(=O)C1(C(O)C1C=CCCC1)NC(=O)C2CCSC#N (stereo not shown)  EC50 (Jurkat; DNA fragmentation, propidium iodide flow cytometry; 24 h): 1 µM
CC[C@H](C)[C@H](NC(=O)[C@H](CCC(=O)O)NC(=O)[C@H](CC(=O)O)NC(=O)CNC(=O)[C@H](CC(C)C)NC(=O)[C@H](CCCNC(=N)N)NC(=O)[C@H](CCC(N)=O)NC(=O)[C@H](CC(C)C)NC(=O)[C@H](CO)NC(=O)[C@H](CCC(N)=O)NC(=O)[C@@H](NC(=O)[C@H](CC(C)C)NC(=O)[C@H](Cc1c[nH]c2ccccc12)NC(=O)[C@@H](NC(=O)[C@H](CCC(=O)O)NC(=O)[C@@H]1CCCN1C(=O)[C@H](CCCNC(=N)N)NC(C)=O)[C@@H](C)CC)[C@@H](C)O)C(=O)N[C@@H](CC(N)=O)C(=O)N[C@@H](C)C(=O)N[C@@H](Cc1ccc(O)cc1)C(=O)N[C@@H](Cc1ccc(O)cc1)C(=O)N[C@@H](C)C(=O)N[C@@H](CCCNC(=N)N)C(N)=O  EC50 (Bcl-2/Myc 2924, permeabilized; mitochondrial depolarization, BH3 profiling, JC-1; 3 h): > 100 µM
Cc1cc(Nc2ccc(NC(=O)c3ccc(Nc4ccnc5ccccc45)cc3)cc2)nc(N)n1  EC50 (KG-1; cell proliferation; 3 days, 15 % fetal calf serum): 4.4 µM
fibronectin  EC50 (B16-F10; cell spreading on coated substance; coating concentration): 0.007 µM
Nc1ccn([C@@H]2O[C@H](CO)[C@@H](O)[C@@H]2O)c(=O)n1  EC50 (ENT2 knockout; cell viability, MTT; 48 h, low affinity phase): 3310 µM
